Measurements from different studies.
± gives the spread as reported.

For `CC[C@H](C)[C@H](NC(=O)[C@H](C)NC(=O)[C@H](CCC(=O)O)NC(=O)[C@H](CCC(=O)O)NC(=O)[C@H](CC(C)C)NC(=O)[C@H](CCCCN)NC(=O)[C@H](CCCCN)NC(=O)[C@H](CCSC)NC(=O)[C@H](CCC(=O)O)NC(=O)[C@H](Cc1ccc(O)cc1)NC(=O)[C@H](CCC(=O)O)NC(=O)[C@H](CC(C)C)NC(=O)[C@H](CC(=O)O)NC(=O)[C@H](CC(C)C)NC(=O)[C@H](Cc1ccccc1)NC(=O)[C@@H](NC(=O)[C@@H](NC(=O)[C@@H](N)CC(N)=O)C(C)C)[C@@H](C)O)C(=O)N[C@@H](CCCCN)C(=O)N[C@@H](CCCCN)C(=O)N[C@@H](CC(C)C)C(=O)N[C@@H](CCC(=O)O)C(=O)N[C@@H](CCC(=O)O)C(=O)N[C@@H](CO)C(=O)N[C@@H](Cc1ccc(O)cc1)C(=O)N[C@H](C(=O)N[C@@H](CC(=O)O)C(=O)N[C@@H](CC(C)C)C(=O)N[C@@H](CCCCN)C(=O)N[C@@H](CCC(=O)O)C(=O)N[C@@H](CC(C)C)C(=O)NCC(=O)N[C@H](C(=O)N[C@@H](Cc1ccc(O)cc1)C(=O)N[C@@H](CCC(=O)O)C(=O)N[C@@H](Cc1ccc(O)cc1)C(=O)NCC(=O)N[C@@H](CO)C(=O)NCC(=O)N[C@@H](CSCC(=O)O[C@H]1CC[C@@]2(C)C(=CC[C@H]3[C@@H]4CC[C@H]([C@H](C)CCCC(C)C)[C@@]4(C)CC[C@@H]32)C1)C(N)=O)[C@@H](C)O)[C@@H](C)CC`, “loss of inhibitory activity” read ~20% (SARS-CoV-2; pseudovirus infection; mouse serum; concentration not given).
For `CC[C@H](C)[C@H](NC(=O)[C@H](CCCN)NC(=O)[C@H](CC(=O)O)NC(=O)[C@H](CC(C)C)NC(=O)C(C)(CC(C)C)NC(=O)[C@@H](NC(=O)[C@H](CO)NC(=O)[C@H](Cc1ccc(O)cc1)NC(=O)[C@H](CC(=O)O)NC(=O)[C@H](CO)NC(=O)[C@@H](NC(=O)[C@H](Cc1ccccc1)NC(=O)[C@@H](NC(=O)CNC(=O)[C@H](CCC(=O)O)NC(=O)C(C)(C)NC(=O)[C@@H](N)Cc1ccc(O)cc1)[C@@H](C)O)[C@@H](C)CC)[C@@H](C)CC)C(=O)N[C@@H](Cc1c[nH]cn1)C(=O)N[C@@H](CCC(N)=O)C(=O)NC(C)(C)C(=O)N[C@@H](CC(=O)O)C(=O)N[C@@H](Cc1ccccc1)C(=O)N[C@H](C(=O)N[C@@H](CCC(=O)O)C(=O)N[C@@H](Cc1ccc(O)cc1)C(=O)N[C@@H](CCCCNC(=O)COCCOCCNC(=O)COCCOCCNC(=O)CC[C@H](NC(=O)CCCCCCCCCCCCCCCCCCC(=O)O)C(=O)O)C(=O)N[C@@H](CC(C)C)C(=O)N[C@@H](CCC(=O)O)C(=O)NCC(=O)NCC(=O)N1CCC[C@H]1C(=O)N[C@@H](CO)C(=O)N[C@@H](CO)C(=O)NCC(=O)N[C@@H](C)C(=O)N1CCC[C@H]1C(=O)N1CCC[C@H]1C(=O)N1CCC[C@H]1C(=O)N[C@@H](CO)C(N)=O)C(C)C` (some centres unmarked), the Vz/F was 8.79 L (human, type 2 diabetes; subcutaneous, 25 mg single dose, geometric mean).
The HD50 of `CC[C@H](C)[C@H](NC(=O)CNC(=O)[C@H](C)NC(=O)[C@H](CCC(=O)O)NC(=O)[C@@H]1CCCN1C(=O)[C@H](CC(=O)O)NC(=O)[C@H](C)NC(=O)[C@H](CCC(=O)O)NC(=O)[C@H](C)NC(=O)[C@@H](N)CC(=O)O)C(=O)NCC(=O)N[C@@H](C)C(=O)N[C@H](C(=O)N[C@@H](CC(C)C)C(=O)N[C@@H](CCCCN)C(=O)N[C@H](C(=O)N[C@@H](CC(C)C)C(=O)N[C@H](C(=O)N[C@H](C(=O)NCC(=O)N[C@@H](CC(C)C)C(=O)N1CCC[C@H]1C(=O)N[C@@H](C)C(=O)N[C@@H](CC(C)C)C(=O)N[C@H](C(=O)N[C@@H](CO)C(=O)N[C@@H](Cc1c[nH]c2ccccc12)C(=O)N[C@H](C(=O)N[C@@H](CCCCN)C(=O)N[C@@H](CCCNC(=N)N)C(=O)N[C@@H](CCCCN)C(=O)N[C@@H](CCCNC(=N)N)C(=O)N[C@@H](CCC(N)=O)C(=O)N[C@@H](CCC(N)=O)C(N)=O)[C@@H](C)CC)[C@@H](C)CC)[C@@H](C)O)[C@@H](C)O)C(C)C)C(C)C` is reported as 22.3 ± 1.1 µmol/L (human erythrocytes, washed; 1 h, 37 °C, 2% v/v RBC suspension).
`CCCCCCCCCCCCCCCC(=O)N[C@@H](CCC(=O)NCCCC[C@H](NC(=O)[C@H](CC(=O)O)NC(=O)[C@H](CO)NC(=O)[C@@H](NC(=O)[C@H](Cc1ccccc1)NC(=O)[C@@H](NC(=O)CNC(=O)[C@H](CCC(N)=O)NC(=O)[C@H](C)NC(=O)[C@@H](Cc1ccc(O)cc1)NC(C)=O)[C@@H](C)O)[C@@H](C)O)C(=O)N[C@@H](CO)C(=O)N[C@@H](CCCCN)C(=O)N[C@@H](Cc1ccc(O)cc1)C(=O)N[C@@H](CC(C)C)C(=O)N[C@@H](CC(=O)O)C(=O)N[C@@H](CCC(=O)O)C(=O)N[C@@H](CCCNC(=N)N)C(=O)N[C@@H](C)C(=O)N[C@@H](C)C(=O)N[C@@H](CCC(N)=O)C(=O)N[C@@H](CC(=O)O)C(=O)N[C@@H](Cc1ccccc1)C(=O)N[C@H](C(=O)N[C@@H](CCC(N)=O)C(=O)N[C@@H](Cc1c[nH]c2ccccc12)C(=O)N[C@@H](CC(C)C)C(=O)N[C@@H](CC(C)C)C(=O)N[C@@H](CCC(=O)O)C(=O)NCC(=O)NCC(=O)N1CCC[C@H]1C(=O)N[C@@H](CO)C(=O)N[C@@H](CO)C(=O)NCC(=O)N[C@@H](C)C(=O)N1CCC[C@H]1C(=O)N1CCC[C@H]1C(=O)N1CCC[C@H]1C(=O)N[C@@H](CO)C(N)=O)C(C)C)C(=O)O` has a Cmax of 92.3 to 93.8 ng/mL (cynomolgus monkey, male, plasma; intravenous, 0.0031 mg/kg).
For `Cc1oc2nc1C(=O)N[C@](C)(C(=O)NCCc1ccc(N(C)C)cc1)c1nc(c(C)o1)C(=O)N[C@](C)(C(=O)NCCc1ccc(N(C)C)cc1)c1nc(c(C)o1)C(=O)N[C@]2(C)C(=O)NCCc1ccc(N(C)C)cc1`, the selectivity index was 2.5 (SARS-CoV-2; Vero E6, NRC-03-nhCoV; baseline: CC50 over IC50).
The viability of `CCc1ccccc1NC(=S)N/N=C/c1ccc(O)cc1O` is reported as > 85% (MCF7; 100 µM).
The half-life of `C[C@@H](O)[C@H](N)C(=O)N[C@H](C(=O)N[C@@H](CC(N)=O)C(=O)N[C@@H](Cc1ccc(O)cc1)C(=O)N[C@H](C(N)=O)[C@@H](C)O)[C@@H](C)O` is reported as 3.5 h (RP-HPLC; 25% human serum in RPMI; 37 °C).
`CCCCCCCCCCCCCCCC(=O)N[C@@H](CCC(=O)NCCOCCOCCC(=O)NCCOCCOCCC(=O)NCCCC[C@H](NC(=O)[C@H](CC(=O)O)NC(=O)[C@H](CC(C)C)NC(=O)[C@H](Cc1ccc(O)cc1)NC(=O)[C@H](CCCCN)NC(=O)[C@H](CO)NC(=O)[C@H](Cc1ccc(O)cc1)NC(=O)[C@H](CC(=O)O)NC(=O)[C@H](CO)NC(=O)[C@@H](NC(=O)[C@H](Cc1ccccc1)NC(=O)[C@@H](NC(=O)CNC(=O)[C@H](CCC(N)=O)NC(=O)[C@@H](CO)NC(=O)[C@@H](N)Cc1c[nH]cn1)[C@@H](C)O)[C@@H](C)O)C(=O)N[C@@H](CCCNC(=N)N)C(=O)N[C@@H](CCCNC(=N)N)C(=O)N[C@@H](C)C(=O)N[C@@H](CCC(N)=O)C(=O)N[C@@H](CC(=O)O)C(=O)N[C@@H](Cc1ccccc1)C(=O)N[C@H](C(=O)N[C@@H](CCC(N)=O)C(=O)N[C@@H](Cc1c[nH]c2ccccc12)C(=O)N[C@@H](CC(C)C)C(=O)N[C@@H](CC(C)C)C(=O)N[C@@H](CC(N)=O)C(=O)N[C@H](C(=O)NCC(=O)NCC(=O)N1CCC[C@H]1C(=O)N[C@@H](CO)C(=O)N[C@@H](CO)C(=O)NCC(=O)N[C@@H](C)C(=O)N1CCC[C@H]1C(=O)N1CCC[C@H]1C(=O)N1CCC[C@H]1C(=O)N[C@@H](CO)C(N)=O)[C@@H](C)O)C(C)C)C(=O)O`: “serum enzyme activity” 752 ± 440 U/L (refers to: CK; Sprague-Dawley rat, female; subcutaneous, 100 µg/kg once daily, 14 days).

A few entries again:
For `CC[C@H](C)[C@H](NC(=O)[C@H](CCCN)NC(=O)[C@H](CC(=O)O)NC(=O)[C@H](CC(C)C)NC(=O)C(C)(CC(C)C)NC(=O)[C@@H](NC(=O)[C@H](CO)NC(=O)[C@H](Cc1ccc(O)cc1)NC(=O)[C@H](CC(=O)O)NC(=O)[C@H](CO)NC(=O)[C@@H](NC(=O)[C@H](Cc1ccccc1)NC(=O)[C@@H](NC(=O)CNC(=O)[C@H](CCC(=O)O)NC(=O)C(C)(C)NC(=O)[C@@H](N)Cc1ccc(O)cc1)[C@@H](C)O)[C@@H](C)CC)[C@@H](C)CC)C(=O)N[C@@H](Cc1c[nH]cn1)C(=O)N[C@@H](CCC(N)=O)C(=O)NC(C)(C)C(=O)N[C@@H](CC(=O)O)C(=O)N[C@@H](Cc1ccccc1)C(=O)N[C@H](C(=O)N[C@@H](CCC(=O)O)C(=O)N[C@@H](Cc1ccc(O)cc1)C(=O)N[C@@H](CCCCNC(=O)COCCOCCNC(=O)COCCOCCNC(=O)CC[C@H](NC(=O)CCCCCCCCCCCCCCCCCCC(=O)O)C(=O)O)C(=O)N[C@@H](CC(C)C)C(=O)N[C@@H](CCC(=O)O)C(=O)NCC(=O)NCC(=O)N1CCC[C@H]1C(=O)N[C@@H](CO)C(=O)N[C@@H](CO)C(=O)NCC(=O)N[C@@H](C)C(=O)N1CCC[C@H]1C(=O)N1CCC[C@H]1C(=O)N1CCC[C@H]1C(=O)N[C@@H](CO)C(N)=O)C(C)C` (some centres unmarked), the Vz/F was 8.79 L (human, type 2 diabetes; subcutaneous, 25 mg single dose, geometric mean).
